Measurements gathered from unrelated publications.
Protocols differ between the studies behind these lines. “And” joins repeats or separate records; there may be more than shown. Numbers after ± are the reported error.
BPTF bromodomain: Nucleosome-remodeling factor subunit BPTF, bromodomain (BPTF, Homo sapiens, UniProt Q12830)
RIPK3: Receptor-interacting serine/threonine-protein kinase 3 (RIPK3, Homo sapiens, UniProt Q9Y572)

OC[C@H]1Oc2cc(I)cc3c2[C@@H](OC3)[C@H]1O  Kd (Galectin-1 (LGALS1, Homo sapiens, UniProt P09382); ligand displacement, FP): 1200 µM
CC(=O)NCCCC[C@H](NC(=O)[C@H](C)NC(=O)[C@H](CCCCN)NC(=O)CNC(=O)[C@H](CO)NC(=O)[C@H](CC(=O)O)NC(=O)[C@H](CCCCN)NC(=O)CNC(=O)[C@H](C)NC(=O)[C@H](CCCCN)NC(=O)CNC(=O)CNC(=O)[C@H](C)NC(=O)[C@@H](N)Cc1ccc(O)cc1)C(=O)N[C@@H](C)C(=O)N[C@@H](CCCCNC(C)=O)C(=O)N[C@@H](C)C(=O)N[C@H](C(=O)N[C@@H](CO)C(=O)N[C@@H](CCCNC(=N)N)C(N)=O)C(C)C  Kd (BPTF bromodomain; bromodomain binding, PrOF NMR titration; pH 7.4, 5-fluorotryptophan-labelled bromodomain, 40-50 µM): 910 µM
CCCN(CC(=O)N(CCC)CC(=O)N(CCC)CC(=O)N(CCC)CC(=O)N(CC(=O)N(CCC)CC(=O)N(CCC)CC(=O)N(CCC)CC(=O)N(CCC)CC(=O)N(CC(=O)N(CCC)CC(=O)N(CCC)CC(=O)N(CCC)CC(=O)N(CCC)CC(=O)N(CC(N)=O)Cc1cn(CCCNC(=O)CCCOc2cccc(-c3nc4ccc(-c5nc6ccc(N7CCN(C)CC7)cc6[nH]5)cc4[nH]3)c2)nn1)Cc1cn(CCCNC(=O)CCCOc2cccc(-c3nc4ccc(-c5nc6ccc(N7CCN(C)CC7)cc6[nH]5)cc4[nH]3)c2)nn1)Cc1cn(CCCNC(=O)CCCOc2cccc(-c3nc4ccc(-c5nc6ccc(N7CCN(C)CC7)cc6[nH]5)cc4[nH]3)c2)nn1)C(=O)CNCc1cn(CCCNC(=O)CCCOc2cccc(-c3nc4ccc(-c5nc6ccc(N7CCN(C)CC7)cc6[nH]5)cc4[nH]3)c2)nn1  Kd (r(CUG)109 RNA hairpin; binding, fluorescence): 0.035 ± 0.004 µM
CC1=C(/C=C/C(C)=C\C=C\C(C)=C\C=O)C(C)(C)CCC1  Kd (Rhodopsin, apoprotein (opsin) (RHO, Bos taurus, UniProt P02699); Trp fluorescence quenching; opsin membranes; titration up to 1 µM): 0.0576 µM
CCCC[C@@H]1NC(=O)[C@H](Cc2ccc(O)cc2)NC(=O)[C@@H]2CCCN2C(=O)[C@H](CC(=O)O)NC(=O)[C@H](C)NC(=O)[C@H](Cc2ccccc2)NC(=O)[C@@H]2CSCCC(=O)N3CN(CN(C3)C(=O)CCSC[C@@H](C(=O)N[C@@H](C)C(N)=O)NC1=O)C(=O)CCSC[C@H](NC(C)=O)C(=O)N[C@@H](CC(C)(C)C)C(=O)N1CCC[C@H]1C(=O)N[C@@H](CCC(=O)O)C(=O)N[C@H](CCCCNC(=O)CCc1cn(CCOCCOCCOCCN(CCOCCOCCOCCC(=O)N[C@H]3CSCCC(=O)N4CN5CN(C4)C(=O)CCSC[C@H](NC(=O)[C@@H](CC(=O)O)NC(=O)[C@H](Cc4cccc6ccccc46)NC(=O)[C@@H]4CCCN4C3=O)C(=O)N[C@@H](CCSC)C(=O)N[C@@H](CCCCNC(=N)N)C(=O)N[C@@H](CC(=O)O)C(=O)N[C@@H](Cc3c[nH]c4ccccc34)C(=O)N[C@@H](CO)C(=O)N[C@@H]([C@@H](C)O)C(=O)N3CCC[C@H]3C(=O)N3C[C@H](O)C[C@H]3C(=O)N[C@@H](Cc3c[nH]c4ccccc34)C(=O)N[C@H](C(N)=O)CSCCC5=O)CCOCCOCCOCCn3cc(CCC(=O)NCCCC[C@H]4NC(=O)[C@H](CCC(=O)O)NC(=O)[C@@H]5CCCN5C(=O)[C@H](CC(C)(C)C)NC(=O)[C@@H](NC(C)=O)CSCCC(=O)N5CN6CN(C5)C(=O)CCSC[C@H](NC(=O)[C@H](Cc5ccc(O)cc5)NC(=O)[C@@H]5CCCN5C4=O)C(=O)N[C@@H](Cc4ccccc4)C(=O)N[C@@H](C)C(=O)N[C@@H](CC(=O)O)C(=O)N4CCC[C@H]4C(=O)N[C@@H](Cc4ccc(O)cc4)C(=O)N[C@@H](CCCC)C(=O)N[C@H](C(=O)N[C@@H](C)C(N)=O)CSCCC6=O)nn3)nn1)C(=O)N1CCC[C@H]1C(=O)N[C@@H](Cc1ccc(O)cc1)C(=O)N2  Kd (Nectin-4 (Nectin4, Mus musculus, UniProt Q8R007); binding, SPR; captured on human CD137, together with: mouse soluble Nectin-4): 0.007 µM
CC(=O)N[C@@H]1[C@@H](O[C@@H]2O[C@H](C(=O)O)[C@@H](O[C@@H]3O[C@H](CO)[C@@H](O)[C@H](O[C@@H]4O[C@H](C(=O)O)[C@@H](O)[C@H](O)[C@H]4O)[C@H]3NC(C)=O)[C@H](O)[C@H]2O)[C@H](O)[C@@H](CO)O[C@H]1N=[N+]=[N-]  Kd (Interleukin-10 (Il10, Mus musculus, UniProt P18893); fluorescence polarization competition): no binding
Oc1c(Cl)cc(Cl)cc1CN1CCC(N2CCC(O)CC2)CC1  Kd (TP53 (Homo sapiens, UniProt P04637, M133L/N239Y/N268D/V203A/Y220C); 20 °C, protein 75 µM): 4900 ± 2300 µM
Fc1cc2c(c3ncccc13)OCN(CCc1cccc(Br)c1)C2  Kd (rplL (Escherichia coli, UniProt P0A7K2); binding, SPR): 13.8 µM
[N-]=[N+]=NCCOC1OC(CO)C(OC2OC(COC3(C(=O)O)CC(O)C(NC(=O)OCc4cn(C(c5ccccc5)c5ccccc5)nn4)C(C(O)C(O)CO)O3)C(O)C(O)C2O)C(O)C1O (stereo not shown)  Kd (Sialic acid-binding Ig-like lectin 9, V-set domain (SIGLEC9, Homo sapiens, UniProt Q9Y336, C36S); Siglec-9 domain 1; pH 7.4, 293 K): 34 ± 5 µM
Cc1cc(N2CC[C@@](C#N)(C3(C)CC3)C2=O)cc(C(=O)NCc2cc(F)cc(-c3cnn(C)c3)c2)n1  Kd (Proline--tRNA ligase (Plasmodium falciparum, UniProt Q8I5R7); binding, microscale thermophoresis): 0.258 µM and 0.318 µM
O=C(O)Cc1ccc(O)cc1  Kd (p-hydroxyphenylacetate 3-hydroxylase, reductase component (C1-hpah, Acinetobacter baumannii, UniProt Q6Q271); NADH oxidation, allosteric activator, H2O2 amperometry; pH 7, together with: NADH 50 µM): 103 µM
CC[C@H](C)[C@H](NC(=O)[C@H](CC(=O)O)NC(=O)[C@H](CC(=O)O)NC(=O)[C@@H]1CCCN1C(=O)[C@H](CC(=O)O)NC(=O)[C@H](CC(C)C)NC(=O)[C@H](CCSC)NC(=O)[C@H](CC(C)C)NC(=O)[C@H](CC(=O)O)NC(=O)[C@H](CC(=O)O)NC(=O)[C@H](CCSC)NC(=O)[C@H](C)NC(=O)[C@H](CCC(N)=O)NC(=O)[C@H](CC(=O)O)NC(=O)[C@@H]1CCCN1C(=O)[C@H](CC(C)C)NC(=O)[C@@H]1CCCN1C(=O)[C@H](CC(=O)O)NC(=O)[C@H](CC(C)C)NC(=O)[C@@H](NC(=O)[C@H](CC(N)=O)NC(=O)[C@H](CC(N)=O)NC(=O)[C@H](CCC(=O)O)NC(=O)[C@@H]1CCCN1C(=O)[C@H](CC(C)C)NC(=O)[C@H](CC(C)C)NC(=O)[C@H](CCCCN)NC(=O)[C@H](Cc1c[nH]c2ccccc12)NC(=O)[C@H](CC(C)C)NC(=O)[C@H](CC(=O)O)NC(=O)[C@H](CC(=O)O)NC(=O)[C@H](Cc1ccccc1)NC(=O)[C@H](CC(=O)O)NC(=O)[C@H](CCC(=O)O)NC(=O)[C@H](CCC(N)=O)NC(=O)[C@H](CC(=O)O)NC(=O)[C@H](CC(C)C)NC(=O)[C@@H]1CCCN1C(=O)[C@@H]1CCCN1C(=O)[C@H](CCC(=O)O)NC(=O)[C@@H](N)C(C)C)C(C)C)C(=O)N[C@@H](CCC(=O)O)C(=O)N[C@@H](CCC(N)=O)C(=O)N[C@@H](Cc1c[nH]c2ccccc12)C(=O)N[C@@H](Cc1ccccc1)C(=O)N[C@@H](CC(=O)O)C(=O)N[C@@H](CCC(=O)O)C(=O)N[C@@H](CC(=O)O)C(=O)O  Kd (Histone acetyltransferase p300, TAZ1 domain (EP300, Homo sapiens, UniProt Q09472); fluorescence anisotropy; TAZ1 domain, together with: labelled p53 TAD peptide): 0.038 ± 0.008 µM
O=C(Cc1cccc(C(F)(F)F)c1)Nc1cc(Oc2c(Br)cc3nc(NC(=O)C4CC4)sc3c2Br)ccc1F  Kd (RIPK3; binding, competition with immobilised ligand): > 5 µM
CC[C@H](C)[C@H](NC(=O)[C@H](CCC(=O)O)NC(=O)[C@H](CC(=O)O)NC(=O)[C@H](CC(C)C)NC(=O)[C@@H](NC(=O)[C@H](CCCCN)NC(=O)[C@H](CCCCN)NC(=O)[C@@H](NC(=O)[C@H](CCC(=O)O)NC(=O)[C@H](CCC(=O)O)NC(=O)[C@H](CCC(=O)O)NC(=O)[C@H](CO)NC(=O)[C@H](CC(C)C)NC(=O)[C@H](CC(=O)O)NC(=O)[C@H](CC(C)C)NC(=O)CNC(=O)[C@H](CCCNC(=N)N)NC(=O)[C@H](CC(C)C)NC(=O)[C@H](CO)NC(=O)CNC(=O)CNC(=O)CNC(=O)CCCC[C@@H]1SC[C@@H]2NC(=O)N[C@@H]21)C(C)C)[C@@H](C)CC)C(=O)N[C@@H](C)C(=O)N[C@@H](CCCCN)C(=O)N[C@@H](CC(=O)O)C(=O)O  Kd (Fab B11 antibody (human); binding, biolayer interferometry; together with: biotinylated peptide on tips): 0.047 ± 0.001 µM
CC(=O)NCCCC[C@H](NC(=O)[C@H](C)NC(=O)[C@H](CCCCN)NC(=O)CNC(=O)[C@H](CO)NC(=O)[C@H](CC(=O)O)NC(=O)[C@H](CCCCN)NC(=O)CNC(=O)[C@H](C)NC(=O)[C@H](CCCCN)NC(=O)CNC(=O)CNC(=O)[C@H](C)NC(=O)[C@@H](N)Cc1ccc(O)cc1)C(=O)N[C@@H](C)C(=O)N[C@@H](CCCCN)C(=O)N[C@@H](C)C(=O)N[C@H](C(=O)N[C@@H](CO)C(=O)N[C@@H](CCCNC(=N)N)C(N)=O)C(C)C  Kd (BPTF bromodomain; bromodomain binding, PrOF NMR titration; pH 7.4, 5-fluorotryptophan-labelled bromodomain, 40-50 µM): 1730 µM
COC(=O)c1c(Oc2ccc(F)c(NC(=O)Cc3cccc(C(F)(F)F)c3)c2)ccc2nc(NC(=O)C3CC3)sc12  Kd (RIPK3; binding, competition with immobilised ligand): 0.14 µM
CN(C(=O)CNCc1ccc(Cl)c(Cl)c1)[C@H](Cc1ccccc1)C(=O)N(CCc1ccc(C(F)(F)F)cc1)CC(=O)NCC(N)=O  Kd (MMP14 (Homo sapiens, UniProt P50281); binding, FP): 67 µM
CC[C@H](C)[C@H](NC(=O)[C@H](CCCCN)NC(=O)[C@H](CCCCN)NC(=O)[C@@H](NC(=O)[C@H](CCC(=O)O)NC(=O)[C@H](CCC(=O)O)NC(=O)[C@H](CCC(=O)O)NC(=O)[C@H](CO)NC(=O)[C@H](CC(C)C)NC(=O)[C@H](CC(=O)O)NC(=O)[C@H](CC(C)C)NC(=O)CNC(=O)[C@H](CCCNC(=N)N)NC(=O)[C@H](CC(C)C)NC(=O)[C@H](CO)NC(=O)CNC(=O)CNC(=O)CNC(=O)CCCC[C@@H]1SC[C@@H]2NC(=O)N[C@@H]21)C(C)C)C(=O)N[C@@H](CC(C)C)C(=O)N[C@@H](CC(=O)O)C(=O)N[C@@H](CCC(=O)O)C(=O)N[C@H](C(=O)N[C@H](C(=O)N[C@@H](CCCCN)C(=O)N[C@@H](CC(=O)O)C(=O)N1CCC[C@H]1C(=O)N[C@@H](CO)C(=O)N[C@@H](C)C(=O)O)C(C)C)[C@@H](C)CC  Kd (Fab B11 antibody (human); binding, biolayer interferometry; together with: biotinylated peptide on tips): 0.036 ± 0.001 µM
CCc1cc2c3c(c1CC)O[C@H](CO)[C@H](O)[C@@H]3OC2  Kd (Galectin-9, N-terminal CRD (LGALS9, Homo sapiens, UniProt O00182); binding, competitive fluorescence polarization; 20 °C, galectin-9 N-terminal domain 1.0 µM): > 6000 µM
